{"data": "Assay results pooled from the literature", "note": "Protocols differ between the studies behind these lines. ± marks the error that the study gave."}
{"Compound": "Cc1ncc(CO)c(C(=O)O)c1O", "species": "human", "notes": "baseline geometric mean", "renal clearance": "182 mL/min"}
{"Compound": "COc1ccc(F)cc1C(=O)NCc1ccc(-c2nn([C@@H](C)C(F)(F)F)c(N)c2C(N)=O)cc1", "species": "human male", "sample": "plasma and urine", "route": "intravenous", "dose": "22 µg", "renal clearance": "2 mL/min"}
{"Compound": "O=C(c1nc2n(n1)[C@H](c1ccccc1)C[C@@H]2F)C1CC1", "species": "human, fasted", "dose": "75 mg single dose", "renal clearance": "0.182 mL/min"}
{"Compound": "NC[C@@]1(CC(=O)O)[C@@H]2CC[C@H]3C[C@@H]2[C@@H]1C3", "species": "human, normal renal function", "sample": "urine", "route": "oral", "dose": "20 mg single dose", "renal clearance": "132 ± 23.3 mL/min"}
{"Compound": "Cc1cc(-c2nccc3c2ccn3CC(=O)Nc2ccc(-c3cnccn3)cn2)ccn1", "species": "human", "sample": "plasma and urine", "route": "oral", "dose": "20 mg once daily", "time": "day 1", "notes": "geometric mean", "renal clearance": "3.87 mL/min"}
{"Compound": "Cl.[2H]C([2H])([2H])CC(=O)c1cnc(NC(=O)C2CC2)cc1Nc1cccc(-c2ncn(C([2H])([2H])[2H])n2)c1OC", "species": "human", "route": "oral", "dose": "20 mg", "renal clearance": "405 mL/min"}
{"Compound": "Cc1ccc(C(=O)NC2CC2)cc1-n1ncc(C(=O)c2cccc(C#N)c2)c1N", "species": "human", "notes": "mass balance study", "renal clearance": "7.47 mL/min"}
{"Compound": "CC(=O)N(C)[C@H]1CCN(C(=O)c2cnc3c(c2)C[C@](C)(c2ccc(F)cc2)N3)C1", "species": "healthy male human", "sample": "urine", "route": "oral", "dose": "30 mg once daily", "time": "0-48 h steady state", "notes": "geometric mean", "renal clearance": "183 mL/min"}
{"Compound": "CN(C)C(=O)c1cc2cnc(Nc3ccc(N4CCNCC4)cn3)nc2n1C1CCCC1", "species": "human, moderate renal impairment", "sample": "plasma and urine", "route": "oral", "dose": "400 mg", "notes": "geometric mean", "renal clearance": "43 mL/min"}
{"Compound": "C[C@@H](Oc1ccc(S(C)(=O)=O)cc1C(=O)N1C[C@@H]2C[C@]2(c2cc(C(F)(F)F)on2)C1)C(F)(F)F", "species": "elderly humans", "sample": "urine", "route": "oral", "dose": "50 mg once daily", "time": "0-24 h", "notes": "single dose, geometric mean", "renal clearance": "6.28 mL/min"}
{"Compound": "CC[C@H](C)[C@@H]([C@@H](CC(=O)N1CCC[C@H]1[C@H](OC)[C@@H](C)C(=O)N[C@@H](Cc1ccccc1)C(=O)NCCCO)OC)N(C)C(=O)[C@@H](NC(=O)[C@H](C(C)C)N(C)C)C(C)C", "species": "human", "renal clearance": "0.602 mL/min"}
{"Compound": "Cn1cc(-c2cn3nccc3c(-c3cnn([C@]4(CC#N)C[C@@H](C#N)C4)c3)n2)cn1", "species": "human", "sample": "urine", "dose": "30 mg once daily", "time": "day 10", "notes": "multiple dose, geometric mean", "renal clearance": "5 mL/min"}
{"Compound": "CC(C)n1c(C2CCNCC2)nc2c([N+](=O)[O-])c(Br)c(Br)cc21", "species": "human", "sample": "urine", "route": "oral", "dose": "150 mg single dose", "renal clearance": "9.5 mL/min"}
{"Compound": "C[C@@H](N)c1cc(Cl)ccc1Cn1c(=S)[nH]c(=O)c2[nH]ccc21", "species": "human, both sexes, severe renal impairment", "sample": "urine and plasma", "route": "oral", "dose": "2.5 mg single dose", "time": "0-24 h urine collection", "notes": "geometric mean", "renal clearance": "38.3 mL/min"}
{"Compound": "CN[C@@H]1COc2c(S(=O)(=O)NC(=O)Nc3c4c(cc5c3CCC5)CCC4)cnn2C1", "species": "human, fasted", "sample": "urine", "route": "oral", "dose": "600 mg", "time": "48 h", "renal clearance": "7.37 mL/min"}
{"Compound": "Cl.O=C(NC1CCOCC1)c1csc([C@@H]2C[C@H]2NCC2CC2)c1", "species": "human, fed", "sample": "urine", "route": "oral", "dose": "30 mg single dose", "renal clearance": "158 mL/min"}
{"Compound": "Cc1cc(C)c(CNC(=O)c2cc(Cl)c3c(c2C)O[C@@](C)([C@H]2CC[C@H](N(C)C)CC2)O3)c(=O)[nH]1", "species": "human", "sample": "urine and plasma", "route": "oral", "dose": "200 mg", "renal clearance": "31.3 mL/min"}
{"Compound": "C[C@H](O)c1cc(C(=O)N[C@@H](C)Cn2ccc(-c3ccc(C#N)c(Cl)c3)n2)n[nH]1", "species": "human, fasted", "sample": "plasma", "route": "oral solution", "dose": "300 mg 14C-darolutamide", "notes": "geometric mean", "renal clearance": "7.23 mL/min"}
{"Compound": "CO[C@]1(C(=O)N[C@@H](C)c2ccc(-n3cc(F)cn3)nc2)CC[C@H](c2nc(C)cc(Nc3cc(C)[nH]n3)n2)CC1", "species": "human", "route": "oral", "renal clearance": "6.3 mL/min"}
{"note": "Repeated from above:"}
{"Compound": "CN(C)C(=O)c1cc2cnc(Nc3ccc(N4CCNCC4)cn3)nc2n1C1CCCC1", "species": "human, moderate renal impairment", "sample": "plasma and urine", "route": "oral", "dose": "400 mg", "notes": "geometric mean", "renal clearance": "43 mL/min"}
{"Compound": "C[C@@H](Oc1ccc(S(C)(=O)=O)cc1C(=O)N1C[C@@H]2C[C@]2(c2cc(C(F)(F)F)on2)C1)C(F)(F)F", "species": "elderly humans", "sample": "urine", "route": "oral", "dose": "50 mg once daily", "time": "0-24 h", "notes": "single dose, geometric mean", "renal clearance": "6.28 mL/min"}
